Measured values pooled from the literature.
Parts stem from different laboratories: compare values within a part only. Changes are numbered by the printed parent chain.

Series 1
Target: UBE2A UBC core domain (UniProt P49459)
Sequence of UniProt P49459 (whole entry, looked up): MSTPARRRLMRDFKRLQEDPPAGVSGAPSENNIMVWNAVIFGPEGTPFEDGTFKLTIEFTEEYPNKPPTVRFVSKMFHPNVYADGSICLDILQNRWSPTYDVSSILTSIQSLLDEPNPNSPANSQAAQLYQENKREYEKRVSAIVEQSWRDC
Method: yeast two-hybrid
Matrix: yeast
Setting: mostly zero background
Relative to: not given
Reading: higher = stronger interaction
B1: RC3H2 RING domain (UniProt Q9HBD1); chain QAAQWTEFLSCPICYNEFDENVHKPISLGCSHTVCKTCLNKLHRKACPFDQTAINTDIDVL
B2: ARK2C RING domain (UniProt Q6ZSG1); chain EGEESDTDEKCTICLSMLEDGEDVRRLPCMHLFHQLCVDQWLAMSKKCPICRVDIETQLGAD
| Sequence | lacZ reporter activity |
| --- | --- |
| QLRRLQEERTCKVCMDKEVSIVFIPCGHLVVCKDCAPSLRKCPICRSTIKGTVRTF (BIRC3 RING domain (UniProt Q13489)) | 0 |
| VTLSLTLPITCHICLGKVRQPVICINNHVFCSICIDLWLKNNSQCPACRVPITPENPCK (OBI1 RING domain (UniProt Q5W0B1)) | 0 |
| FPEHFVKSISCQICEHILADPVETNCKHVFCRVCILRCLKVMGSYCPSCRYPCFPTDLES (RAG1 RING domain (UniProt P15918)) | 0 |
| B1 (RC3H2 RING domain) | 0 |
| B2 (ARK2C RING domain) | 0 |

Series 2
Target: CCNE1, cyclin fold, Cln2 fusion (human)
Method: yeast growth competition, sequencing
Matrix: yeast
Setting: strong parent motif
Relative to: not given
Reading: higher = stronger binding
Starting sequence: viral docking peptide; TSVRRALFTGGSD; partner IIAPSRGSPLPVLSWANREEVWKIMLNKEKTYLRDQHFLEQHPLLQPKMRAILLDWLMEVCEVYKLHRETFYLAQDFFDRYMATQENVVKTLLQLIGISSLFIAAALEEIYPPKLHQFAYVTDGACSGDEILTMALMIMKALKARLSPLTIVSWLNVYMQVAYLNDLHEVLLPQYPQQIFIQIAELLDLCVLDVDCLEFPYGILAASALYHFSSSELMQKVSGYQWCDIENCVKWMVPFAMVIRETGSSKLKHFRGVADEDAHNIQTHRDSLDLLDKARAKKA
| Change | normalised enrichment score |
| --- | --- |
| S12W | 5.38 |
| G10F | 4.16 |
| G10R | 3.92 |
| G11H | 5.37 |
| S2F | 4.48 |
| A6N | 3.43 |
| S12T | 5.59 |
| R4P | 0.621 |
| S2K | 5.39 |
| S12L | 4.83 |
| F8W | 3.39 |
| T9L | 5.27 |
| G10Q | 5.56 |
| L7E | 0.0159 |
| G10W | 3.49 |
| G11T | 5.89 |
| V3G | 0.805 |
| A6W | 1.36 |
| L7G | 0.0195 |
| S12D | 6.55 |
| T9P | 5.45 |
| R5V | 0.418 |
| T9F | 5.16 |
| S12Q | 5.8 |
| A6T | 4.76 |

Series 3
Target: HLA class I histocompatibility antigen, A alpha chain, allele A*80:01 (Homo sapiens, UniProt P04439)
Effect on: peptide-MHC binding
Molecule type: peptide
Tested at: concentration not given
| Sequence | binding |
| --- | --- |
| KQGDVFYTA | inactive |
| VSDGGPNLY | inactive |
| NTDNKFISY | inactive |
| LELAEITAE | inactive |
| GLIQYPTAW | inactive |

Series 4
Target: ABI1, truncated, D143A, DHFR fusion (Arabidopsis thaliana)
Method: DHFR PCA, deep sequencing
Matrix: yeast
Setting: methotrexate growth selection, single substitutions
Added: (+)-ABA 0.39 µM
Relative to: wild-type fitted maximum
Reading: higher = stronger binding
Starting sequence: PYL1, truncated, DHFR fusion (Arabidopsis thaliana); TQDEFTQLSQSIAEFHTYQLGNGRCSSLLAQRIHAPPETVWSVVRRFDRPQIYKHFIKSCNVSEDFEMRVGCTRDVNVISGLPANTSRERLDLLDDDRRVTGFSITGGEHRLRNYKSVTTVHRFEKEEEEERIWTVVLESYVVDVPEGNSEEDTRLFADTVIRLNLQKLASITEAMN; partner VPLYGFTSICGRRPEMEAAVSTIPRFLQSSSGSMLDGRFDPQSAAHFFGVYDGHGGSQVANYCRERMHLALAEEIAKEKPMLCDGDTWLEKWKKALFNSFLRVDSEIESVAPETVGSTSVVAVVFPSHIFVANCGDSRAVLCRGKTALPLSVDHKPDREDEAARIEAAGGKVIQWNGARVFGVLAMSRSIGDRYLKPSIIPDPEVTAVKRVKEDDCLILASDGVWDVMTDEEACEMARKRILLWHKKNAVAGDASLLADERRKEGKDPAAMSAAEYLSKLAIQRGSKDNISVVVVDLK
| Change | relative binding score [%] |
| --- | --- |
| V62T | 17.3 |
| I79M | 18.7 |
| S171F | -0.937 |
| F5K | 11 |
| A170P | 1.69 |
| E4D | 39 |
| F5G | 5.92 |
| E14C | -2.63 |

Series 5
Target: ATP-dependent RNA helicase DDX3X, helicase core (DDX3X, Homo sapiens, UniProt O00571, residues 132-607)
Sequence of UniProt O00571 (132-607, looked up): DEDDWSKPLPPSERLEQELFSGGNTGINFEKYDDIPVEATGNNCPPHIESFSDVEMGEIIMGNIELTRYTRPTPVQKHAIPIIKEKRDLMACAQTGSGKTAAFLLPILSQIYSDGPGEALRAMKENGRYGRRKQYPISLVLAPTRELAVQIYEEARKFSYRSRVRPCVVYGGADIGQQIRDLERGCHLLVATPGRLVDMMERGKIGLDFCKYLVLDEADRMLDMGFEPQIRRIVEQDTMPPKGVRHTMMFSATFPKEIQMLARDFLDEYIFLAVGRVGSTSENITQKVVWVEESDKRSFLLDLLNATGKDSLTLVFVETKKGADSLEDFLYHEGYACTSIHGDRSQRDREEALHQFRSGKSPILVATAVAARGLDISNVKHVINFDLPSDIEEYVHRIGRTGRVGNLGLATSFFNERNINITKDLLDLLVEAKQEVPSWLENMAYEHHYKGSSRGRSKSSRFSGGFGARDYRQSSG
Method: RNA Bind-n-Seq
Molecule type: RNA
Matrix: in vitro
Tested at: not given
Setting: 4-mer, random 30-nt RNA, single round
Added: RocA, ADP, phosphate
Relative to: input library
Reading: higher = stronger binding
| Strand | 4-mer enrichment [fold] |
| --- | --- |
| GAAA | 1.37 |
| AUAC | 0.721 |
| UGUG | 1.17 |
| CUCC | 0.816 |
| AACG | 0.89 |
| UGUA | 1.08 |
| CUGC | 0.719 |
| UGAA | 1.16 |

For quick reference, copied from above (series 4):
| Change | relative binding score [%] |
| --- | --- |
| F5K | 11 |
| I79M | 18.7 |
| E4D | 39 |
| E14C | -2.63 |
| F5G | 5.92 |
